# Measurements collected from several papers.
# Parts stem from different laboratories: compare values within a part only.

# Sample 1
# Target: Prothrombin, mature alpha-thrombin (F2, Homo sapiens, UniProt P00734)
# Method: aptamer microarray, sandwich
# Form: DNA with 2'F-ANA
# Sample: in vitro
# Tested at: 200 nM
# Notes: whole 15-mer aptamer, many near background
# Together with: Cy3 exosite-II aptamer, 400 nM
# Direction: higher = stronger binding
# Oligonucleotide: GGTTGGTGTGGTTGG
Modification,mean fluorescence intensity
2'F-ANA at 2 3 4 9 10 12 13,251 a.u.
2'F-ANA at 2 5 6 13,82.5 a.u.
2'F-ANA at 2 4 5 6 7 8 10 11 12 14,49.4 a.u.
2'F-ANA at 4 7 8 9 12 15,743 a.u.
2'F-ANA at 3 5 6 7 8 11 12 13 14,58.8 a.u.
2'F-ANA at 1 2 3 4 7 9 10 11 13 15,55.7 a.u.
2'F-ANA at 1 4 5 6 7 8 10 12 14,81.5 a.u.
2'F-ANA at 1 2 3 4 7 9 14,79.7 a.u.

# Sample 2
# Target: Ras GTPase-activating protein-binding protein 1, C-terminal RGG region (G3BP1, Homo sapiens, UniProt Q13283)
# UniProt Q13283, sequence (whole entry, looked up): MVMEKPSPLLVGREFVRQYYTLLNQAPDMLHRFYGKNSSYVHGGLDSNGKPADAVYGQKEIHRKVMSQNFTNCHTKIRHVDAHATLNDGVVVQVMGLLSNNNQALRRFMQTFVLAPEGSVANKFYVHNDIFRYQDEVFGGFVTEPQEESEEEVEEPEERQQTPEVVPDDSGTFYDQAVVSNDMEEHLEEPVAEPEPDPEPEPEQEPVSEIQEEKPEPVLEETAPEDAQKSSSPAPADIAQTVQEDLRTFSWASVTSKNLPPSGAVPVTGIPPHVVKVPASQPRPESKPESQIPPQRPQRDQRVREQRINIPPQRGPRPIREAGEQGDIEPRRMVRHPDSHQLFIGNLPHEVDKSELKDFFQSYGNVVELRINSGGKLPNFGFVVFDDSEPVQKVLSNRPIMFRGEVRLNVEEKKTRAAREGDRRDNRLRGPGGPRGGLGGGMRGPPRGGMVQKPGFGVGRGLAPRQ
# Method: RNA Bind-n-Seq
# Form: RNA
# Sample: in vitro
# Tested at: 1 µM
# Notes: whole 134-nt RNA, ends assumed
# Together with: 150 mM KCl
# Reference: input library
# Direction: higher = stronger binding
# Shared flanks, not repeated: GGGAGUUCUACAGUCCGACGAUC … UGGAAUUCUCGGGUGUCAAGG
Oligonucleotide,log2 enrichment
CCUGUGCUACACAUCGUAUGUACCGAAUCGGGAAAAAGGGAAAAAAAGGGAAAAAAAGGGAAAGUAUUAUGUUACGCCGUUCGGAUCUGC,-1.81
GUCCUGUGCUACACAUCGUAUGUACCGAAUCGGGAAAAAAAGGGAAAAAGGGAAAGGGAAAGUAUUAUGUUACGCCGUUCGGAUCUGCAC,-0.169
GCAGGAAGUAAAAACAAAUGGAAAUGCUUCGGAUAGUGGCAGGGGUGGGGGUUGCUAAGGAAAGGGCGGGAUGGGAGUGGGUAAAGAGUU,1.35
CACAGACAACACGCACCCACACACACACAGAGGGAAGGGGUUGGGAUGGGGACAGGGUGCACAGCAGGGCGGGGUAGGACCCCAGCCCCU,-0.332
UGGCCCUGGUGGCAUGCGGGGAGGAAGAGGUGGCCUCAUGGAUCGUGGUGGUCCCGGUGGAAUGUUCAGAGGUGGCAGUGGUGGAGACAG,3.34
ACCAUGCAGGUGGGCAUCUUUGGGAAGUGGGGCAAGGGGGGGAUAUGGAGGGGGGUAACACUUUGGGAACAGGUGGUCCCAGGUCGUUUC,2.19
CUCAAGUCCUGUGCUACACAUCGUAUGUACCGAAUCGGAAGGGGAAGGAAGGGGAAAGUAUUAUGUUACGCCGUUCGGAUCUGCACUUCC,0.356

# Sample 3
# Target: Histone acetyltransferase KAT6A, both winged helices, GST fusion (KAT6A, Homo sapiens, UniProt Q92794, residues 1-181)
# Method: protein binding microarray
# Form: double-stranded DNA, one strand shown
# Sample: in vitro
# Tested at: not given
# Notes: 8-mer, flanks averaged, mean of 2 arrays, mostly near background
# Reference: not given
# Direction: higher = stronger binding
# Target sequence (chain): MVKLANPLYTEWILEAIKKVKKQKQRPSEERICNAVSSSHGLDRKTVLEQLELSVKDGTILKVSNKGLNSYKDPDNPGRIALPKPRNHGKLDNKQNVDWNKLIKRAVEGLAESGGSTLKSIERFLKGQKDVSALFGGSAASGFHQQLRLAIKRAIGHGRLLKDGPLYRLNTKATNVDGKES
Oligonucleotide,E-score
TGACCGAA,0.1
AGGATTGC,-0.106
CCTGATTC,-0.168
GGATTCCC,-0.0158
ATGGATTG,-0.0129
CCTAGGGC,-0.117
CCACGGGA,0.206
CCATGGTC,-0.0353
ATGATGGG,-0.175
ACGAATGG,-0.121

# Further values, each from its own experiment
Molecule,target,test,test system,conditions,how to read,measurement,result
"PhoQ, residues 284 288 289 292 302 303 SVTLVV","PhoP, residues 12 14 15 18 19 VQALL (Escherichia coli, UniProt P23836)","Sort-seq, measured: YFP reporter",E. coli,"PhoQ-PhoP variant library, together with: 10 µM Mg2+","reference: high Mg2+ state, higher = stronger signaling",fold induction,7.8
